Results gathered from unrelated publications.
Parts stem from different laboratories: compare values within a part only.

Study 1 — mode: inhibitor; tested at: 20 µM
Target: Replicase polyprotein 1ab, nsp13 helicase (rep, Severe acute respiratory syndrome coronavirus 2, UniProt P0DTD1)
| SMILES | inhibition [%] |
| --- | --- |
| CC(C)Cc1ccc([C@H](C)C(=O)O)cc1 | 1 |
| Cc1ccc(/C=C2\CNC/C(=C\c3ccc(C)cc3)C2=O)cc1 | 3.98 |
| CC(C)CCC[C@@H](C)[C@H]1CC[C@H]2[C@@H]3CCC4=CC(=NO)CC[C@]4(C)[C@H]3CC[C@]12C | 5.63 |
| NC1CCN(c2nc3c(cc2F)c(=O)c(C(=O)O)cn3-c2ccc(F)cc2F)C1 (stereo not drawn) | 7.91 |
| N[C@H](C(=O)O)c1cc(O)no1 | 2.37 |
| Clc1ccc(C(c2ccccc2Cl)C(Cl)Cl)cc1 (stereo not drawn) | 4.33 |
| O=C1[C@@H]2[C@H]3CC[C@H](C3)[C@@H]2C(=O)N1C[C@@H]1CCCC[C@H]1CN1CCN(c2nsc3ccccc23)CC1 | 7.38 |
| CN(C[C@@H]1COCCO1)S(=O)(=O)Nc1ccc2ccc3ncc(-c4cnn(C)c4)cc3c(=O)c2c1 | 10.4 |
| CCN1CCN(C(=O)N[C@@H](C(=O)N[C@@H]2C(=O)N3C(C(=O)O)=C(CSc4nnnn4C)CS[C@H]23)c2ccc(O)cc2)C(=O)C1=O | 12.1 |
| CN1CCN2c3c(cccc31)[C@@H]1CN(CCCC(=O)c3ccc(F)cc3)CC[C@@H]12 | 7.88 |
| O=C(c1ccc(Nc2nccc(-c3cc4ccccc4s3)n2)cc1)N1CCC(N2CCCC2)CC1 | 71.5 |
| CN(C(=O)CCCOc1ccc2[nH]c(=O)ccc2c1)C1CCCCC1 | -5.99 |
| CCC(COC(=O)c1cc(OC)c(OC)c(OC)c1)(c1ccccc1)N(C)C (stereo not drawn) | 3.63 |
| COc1cc2c(NC3CCN(C)CC3)nc(N3CCCN(C)CC3)nc2cc1OCCCN(C)C | 51.3 |
| CCCCN(Cc1ccc(C(=O)NO)cc1)C(=O)Nc1ccccc1 | 5.72 |
| CCCCNNC(=O)c1ccc(Br)cc1 | -0.9 |
| CO/N=C(\C(=O)N[C@@H]1C(=O)N2C(C(=O)O)=C(COC(C)=O)CS[C@H]12)c1csc(N)n1 | 4.99 |
| C=C(c1ccccc1OCc1cccc(Cl)c1)n1ccnc1 | -1.07 |
| CN1[C@@H]2CC[C@H]1C[C@@H](OC1c3ccccc3CCc3ccccc31)C2 | 7.42 |
| O=C(O)c1ccc[n+]([O-])c1 | -0.25 |
| O=C(O)CCc1c(C(=O)O)[nH]c2cc(Cl)cc(Cl)c12 | 7.42 |
| O=C1NCN(c2ccccc2)C12CCN(CC1COc3ccccc3O1)CC2 (stereo not drawn) | 7.77 |
| C/C=C(/C(=C/C)c1ccc(O)cc1)c1ccc(O)cc1 | 7.99 |
| CC(=O)Nc1cccc(O)c1 | 7.15 |
| CC(C)c1nc(CN(C)C(=O)N[C@H](C(=O)N[C@@H](Cc2ccccc2)C[C@H](O)[C@H](Cc2ccccc2)NC(=O)OCc2cncs2)C(C)C)cs1 | -0.27 |

Study 2 — technique: protein binding microarray; form: double-stranded DNA, one strand shown; matrix: in vitro; tested at: not given; baseline: not given; direction: higher = stronger binding
Target: Histone acetyltransferase KAT6A, winged helix 2, GST fusion (KAT6A, Homo sapiens, UniProt Q92794, residues 85-181)
Notes: 8-mer, flanks averaged, mean of 2 arrays, mostly near background
Construct (chain): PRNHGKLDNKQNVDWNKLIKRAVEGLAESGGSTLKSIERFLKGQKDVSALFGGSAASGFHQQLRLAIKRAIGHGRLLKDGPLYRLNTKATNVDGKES
| Oligonucleotide | E-score |
| --- | --- |
| ATGCAGTA | 0.0304 |
| CAATTTGG | -0.0892 |
| AGGTCTTA | -0.0766 |
| AGCTTGCG | 0.125 |
| TTACTAAA | 0.142 |
| CCCAACCG | -0.106 |
| CGCCTACC | 0.0816 |
| AGTTTGCA | 0.0471 |

Study 3 — organism: SARS-CoV-2; observed: cytopathic effect; cell line: Vero E6; tested at: 10 µM
| Compound | inhibition |
| --- | --- |
| COc1cc(C[C@@H]2NCCc3cc(O)c(O)cc32)cc(OC)c1OC | 7.3% |
| O=c1c(O)cccc2cc(O)c(O)c(O)c12 | 1.2% |
| NC[C@@H]1O[C@H](C23CC4CC(CC(C4)C2)C3)Cc2c1ccc(O)c2O | 0.4% |
| Nc1ccc(O)c2ncccc12 | -40.9% |

Study 4 — cell line: HEK-293T; observed: pseudovirus infection; technique: FDA-approved drug library screen; organism: VSV pseudotyped with SARS-CoV-2 spike; tested at: 10 µM; time: 16 h; baseline: vehicle-treated
| SMILES | GFP-positive cells |
| --- | --- |
| CC[C@H]1OC(=O)[C@H](C)[C@@H](O[C@H]2C[C@@](C)(OC)[C@@H](O)[C@H](C)O2)[C@H](C)[C@@H](O[C@@H]2O[C@H](C)C[C@H](N(C)C)[C@H]2O)[C@](C)(O)C[C@@H](C)C(=O)[C@H](C)[C@@H](O)[C@]1(C)O | 86.6% |
| COc1ccc2cc(CCC(C)=O)ccc2c1 | 77.4% |
| O=C(c1ccc(F)c(F)c1Nc1ccc(I)cc1F)N1CC(O)([C@@H]2CCCCN2)C1 | 40.9% |
| CCCCN1CCCCC1C(=O)Nc1c(C)cccc1C (stereo not drawn) | 98.7% |

Study 5 — technique: universal PBM; form: double-stranded DNA, one strand shown; matrix: in vitro; tested at: 600 nM; direction: higher = stronger binding
Target: Sal-like protein 4, full length isoform A (SALL4, Homo sapiens, UniProt Q9UJQ4, residues 1-1053)
UniProt Q9UJQ4, sequence (whole entry, looked up): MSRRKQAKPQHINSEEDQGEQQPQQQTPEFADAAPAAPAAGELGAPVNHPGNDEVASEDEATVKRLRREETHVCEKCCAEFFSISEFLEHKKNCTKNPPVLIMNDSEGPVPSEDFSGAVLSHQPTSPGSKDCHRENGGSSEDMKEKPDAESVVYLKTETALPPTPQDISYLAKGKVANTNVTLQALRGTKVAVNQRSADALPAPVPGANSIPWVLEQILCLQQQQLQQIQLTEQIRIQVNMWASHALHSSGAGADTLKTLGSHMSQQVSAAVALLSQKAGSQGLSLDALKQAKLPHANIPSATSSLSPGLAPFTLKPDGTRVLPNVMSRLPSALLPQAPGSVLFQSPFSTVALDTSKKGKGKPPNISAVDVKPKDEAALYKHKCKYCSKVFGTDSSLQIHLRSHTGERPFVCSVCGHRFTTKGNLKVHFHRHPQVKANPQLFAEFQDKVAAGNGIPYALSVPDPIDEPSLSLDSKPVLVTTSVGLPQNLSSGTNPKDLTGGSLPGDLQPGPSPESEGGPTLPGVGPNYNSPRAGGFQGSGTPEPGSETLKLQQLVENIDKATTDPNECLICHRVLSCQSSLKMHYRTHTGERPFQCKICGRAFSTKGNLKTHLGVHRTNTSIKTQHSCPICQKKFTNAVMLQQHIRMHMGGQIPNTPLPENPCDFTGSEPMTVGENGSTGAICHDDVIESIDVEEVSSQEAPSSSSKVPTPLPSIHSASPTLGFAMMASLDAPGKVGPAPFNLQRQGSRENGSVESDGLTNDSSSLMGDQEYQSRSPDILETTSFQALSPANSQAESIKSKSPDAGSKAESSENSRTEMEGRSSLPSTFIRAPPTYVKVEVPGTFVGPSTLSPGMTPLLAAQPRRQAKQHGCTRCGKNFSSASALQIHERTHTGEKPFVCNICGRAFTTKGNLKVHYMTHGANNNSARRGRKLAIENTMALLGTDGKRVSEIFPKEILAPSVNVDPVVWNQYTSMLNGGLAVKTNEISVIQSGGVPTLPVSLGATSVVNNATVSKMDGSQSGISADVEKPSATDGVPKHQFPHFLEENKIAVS
Notes: 8-mer, flanks averaged, mean of replicates
| Oligonucleotide | E-score |
| --- | --- |
| ATTGGGCA | -0.0289 |
| GTTAGGAA | 0.0138 |
| CGGGAGAA | -0.139 |
| CCCGACCA | -0.177 |
| AGCGATAA | 0.115 |
| GAGACTCA | -0.0264 |
| GGCCAAAA | -0.0328 |
| ATGACCGC | -0.2 |

Study 6 — technique: RNA Bind-n-Seq; form: RNA; matrix: in vitro; tested at: not given; baseline: input RNA pool; direction: higher = stronger binding
Target: RING finger protein unkempt homolog, zinc fingers 1-6, GST-SBP tag (UNK, Homo sapiens, UniProt Q9C0B0, residues 30-357)
UniProt Q9C0B0, sequence (30-357, looked up): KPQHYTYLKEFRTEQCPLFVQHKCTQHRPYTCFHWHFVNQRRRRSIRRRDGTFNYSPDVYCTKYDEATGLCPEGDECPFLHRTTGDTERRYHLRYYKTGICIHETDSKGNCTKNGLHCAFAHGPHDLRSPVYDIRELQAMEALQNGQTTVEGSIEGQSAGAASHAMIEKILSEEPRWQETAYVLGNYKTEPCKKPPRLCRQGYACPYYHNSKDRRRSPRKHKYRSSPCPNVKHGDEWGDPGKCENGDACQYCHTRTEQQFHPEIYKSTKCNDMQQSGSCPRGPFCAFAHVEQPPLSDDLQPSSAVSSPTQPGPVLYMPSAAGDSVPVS
Notes: RNA with constant flanks, human and mouse sites, ends assumed
Constant ends, left off below: GGGAGUUCUACAGUCCGACGAUC … CAACAGAGGAUUGAGCAUCA
| Oligonucleotide | bound/input enrichment [ratio] |
| --- | --- |
| AGUUAAUGGAGAAAACACACCUUCAUCCCCGUCUCAGGUUGCUGCCAGACCCAAAAAUGCUCCAGCUCCAAAGCCAGUCACAUCUGCGCCCACCAGUGACACGGUUAAUGGAGAAUCAUC | 0.217 |
| CUGUGUAAGUAGUGGAUACAACAUAGGAACAUCCAAGGUACUGACUGCAGCUUUAGAUACGUGAUUAGUGUGAGAGUCACAUUCUCUGUGUGAAGAUACAUGUCUUUGAGUAAAUUUCAU | 0.96 |
| GAUAAGGUACACAUACAUUAUUUGAGUAACUGUUUCCUUGGGGGCCAAUCUGUGUAUGCUUUUAGAAGUUUACAGAAUGCUUUUAUUUUUGUCUAUAACAAACAGUCUGUCAUUUAUUUC | 0.228 |
| AUAGUAAAAGGGGGUGCUGCAGAGAAAAGUGGUCUGUUGCAUGAAGGAGAUGAAGUUCUAGAGAUUAAUGGCAUUGAAAUUCGGGGGAAAGAUGUCAAUGAGGUUUUUGACUUGUUGUCU | 1.62 |
| AUGAUUUUGCAGUGUGGAAGCGUUGAAAAUUGAAAGUUACUGCUUUUCCACUUGCUCAUAUAGUAAAGGGAUCCUUUCAGCUGCCAGUGUUGAAUAAUGUAUCAUCCAGAGUGAUGUUAU | 0.225 |
| GCUCCUCCCCGCUCUGCAGCCUGGGGACACUGGGCUGGGACCAGAAUCCAGCUUUCUUUUAAAACUCUCAGUGUAACUGUAUCCCGUGACAUUUCAUUUUUUUUAAAUAGUGUAUUUUUU | 3.15 |
| CAUUAAUUUUAAAUUAAGUAAACUAAAUAAAUAAAAAUAAACUUUUUUAAAGAUGUGUGGUUUAGGAUGGGCUUUAAGAAAGUGAGUCUACCAAAUGCCAGUUAAAGAGCAAGUUAGGGG | 2.13 |
| GUAGAAUUCCAAAAGACAGUAAAGCUUAUGUACUACUUGUGGAUGUUCCAUGCAGUAACACUGUUUCUAAAUAUCUUCGGAUGCUUGGCUUGGUUUUGUGUUGAUUCUGCAAGAGCGGUU | 0.0524 |

Repeated from above (study 5):
| Oligonucleotide | E-score |
| --- | --- |
| GTTAGGAA | 0.0138 |
| AGCGATAA | 0.115 |
| ATTGGGCA | -0.0289 |
| CGGGAGAA | -0.139 |
| CCCGACCA | -0.177 |
| GGCCAAAA | -0.0328 |
| ATGACCGC | -0.2 |
| GAGACTCA | -0.0264 |
